Published values pooled from the literature.
Numbers after ± are the reported error.

Molecule = COc1ccc2c(c1)c(CC(=O)O)c(C)n2C(=O)c1ccc(Cl)cc1; assay = shake-flask; system = polysorbate 80; conditions = 37 °C; measurement = thermodynamic solubility; result = 116 ± 8.33 mg/g
Molecule = CNCc1ccc(-c2[nH]c3cc(F)cc4c3c2CCNC4=O)cc1; system = human patients, plasma; conditions = oral, 300 mg once daily, day 15, steady state, arithmetic mean; measurement = half-life; result = 29.8 h
Molecule = CC(C)NC[C@@H](C(=O)N1CCN(c2ncnc3c2[C@H](C)C[C@H]3O)CC1)c1ccc(Cl)cc1; system = human, Mild hepatic function, plasma; conditions = oral, 100 mg single dose, NCI classification, geometric mean; measurement = AUC(0-72 h); result = 398 ng·h/mL
Molecule = CCCC[C@H](NC(C)=O)C(=O)N[C@H]1CCC(=O)NC[C@@H](C(=O)N[C@@H](Cc2c[nH]c3ccccc23)C(N)=O)NC(=O)[C@H](CCCNC(=N)N)NC(=O)[C@@H](Cc2ccccc2)NC(=O)[C@H](Cc2c[nH]cn2)NC1=O; system = healthy volunteers, both sexes, plasma; conditions = subcutaneous, 1.0 mg once daily, day 1; measurement = median AUC(0-inf); result = 49.4 ng·h/mL
Molecule = Cc1c(Cl)cccc1Nc1ccccc1C(=O)O; assay = shake-flask; system = soybean oil; conditions = 37 °C; measurement = thermodynamic solubility; result = 3.81 ± 0.23 mg/g
Molecule = C[C@@H](O)CCCCn1c(=O)c2c(ncn2C)n(C)c1=O; system = male Crl:CD-1 mice; conditions = intravenous, 50 mg/kg, well-stirred model; measurement = hepatic plasma clearance; result = 1.22 mL/min
Molecule = COc1cc(N)c(Cl)cc1C(=O)NC1CCN(CCCOc2ccc(F)cc2)CC1OC (stereo not shown); system = male Hartley guinea pig, anaesthetized; conditions = intravenous infusion, 1 mg/kg, 10 min infusion; scale = baseline: baseline; measurement = QTc change; result = 18.2 ± 1.9%
Molecule = COC(=O)C[C@](O)(CCCC(C)(C)O)C(=O)O[C@@H]1C(OC)=C[C@]23CCCN2CCc2cc4c(cc2[C@H]13)OCO4; system = CD1 mice, esophagus; conditions = oral, 1 mg/kg, 24 h; measurement = tissue concentration; result = not detected
Molecule = O=C(CCC(C(=O)[O-])N1CCN(C(CCC(=O)NCC(O)CO)C(=O)[O-])Cc2cccc(n2)CN(C(CCC(=O)NCC(O)CO)C(=O)[O-])CC1)NCC(O)CO.[Gd+3] (stereo not shown); system = Beagle dog, plasma; conditions = intravenous bolus, 0.2 mmol Gd/kg; measurement = Vdss; result = 0.239 ± 0.008 L/kg
Molecule = CCCC[C@@H]1NC(=O)[C@@H](NC(=O)[C@H](CCC(=O)O)NC(=O)CNC(=O)CN2CCN(CC(=O)O)CCN(CC(=O)O)CCN(CC(=O)O)CC2)CCCCNC(=O)C[C@@H](C(N)=O)NC(=O)[C@H](C(C)C)NC(=O)[C@@H]2CCCN2C(=O)[C@H](CCCNC(=N)N)NC(=O)CNC(=O)[C@H](Cc2c[nH]c3ccccc23)NC(=O)[C@H](CCCNC(=N)N)NC(=O)[C@@H](Cc2ccccc2)NC(=O)[C@H](Cc2c[nH]cn2)NC(=O)[C@H](CCC(=O)O)NC1=O [indium-111 labelled]; system = C57 mice, B16/F10 lung metastatic melanoma, heart; conditions = intravenous, 0.037 MBq, 2 h; measurement = tissue uptake; result = 0.2 ± 0.09 %ID/g
Molecule = FC(F)(F)Oc1ccc(Oc2ccnc(N3CCC(NC(=S)Nc4cccnc4)CC3)c2Cl)c(Cl)c1; system = C57BL/6 mice, brain; conditions = i.p. or oral, 30 mg/kg, 4 h; measurement = brain concentration; result = 3 to 6 µM
Molecule = O=C(C1CCCCC1)N1CC(=O)N2CCc3ccccc3[C@@H]2C1; system = healthy men, plasma; conditions = oral, 40 mg/kg racemic praziquantel, geometric mean, together with: ritonavir 100 mg/day for 14 days; measurement = apparent oral clearance; result = 2240 L/h
Molecule = Cc1ccc(NC(=O)c2ccc(CN3CCN(C)CC3)cc2)cc1Nc1nccc(-c2cncc(-c3oncc3C)c2)n1; system = Parkinson's disease patients, plasma; conditions = oral, 100 mg once daily, day 7, 7-day dosing, mean; measurement = half-life; result = 24.6 h
Molecule = CS/C(S)=N/CCCC[S+](C)[O-] (racemic); assay = RT-PCR, measured: Cyp2b3; system = rat, colon; conditions = oral gavage, 200 mg/kg, dosed for four days; scale = baseline: vehicle; measurement = mRNA fold change; result = 0.992
Molecule = acyl ghrelin (human); system = Ghsr knockout mice, midbrain; conditions = intravenous, dose not given, 10 min, vascular space corrected; measurement = tissue/serum ratio; result = 5.46 µL/g
Molecule = C[C@]12C=CC(=O)C=C1CC[C@@H]1[C@@H]2[C@@H](O)C[C@@]2(C)[C@H]1C[C@H]1O[C@@H](C3CCCCC3)O[C@]12C(=O)CO; system = children with asthma, serum; conditions = inhaled, 160 µg ciclesonide, day 7, steady state, MDI with spacer; measurement = AUC(tau); result = 0.663 ng·h/mL
Molecule = O=C(CCCCCCC(=O)Nc1ccccc1)NO; assay = LC-MS/MS; system = human, serum; conditions = oral, 200 mg, day 1, first dose mean; measurement = AUC(0-8 h); result = 632 ng·h/mL
Molecule = CCCSc1ccc2nc(NC(=O)OC)[nH]c2c1; assay = shake-flask; system = polysorbate 80; conditions = 37 °C; measurement = thermodynamic solubility; result = 2.09 ± 0.12 mg/g
Molecule = C[C@H]1CN(C(=O)CC#N)[C@]12CCN(c1ncnc3[nH]ccc13)C2; system = atopic dermatitis patients, urine; conditions = topical, 5 g of 3% ointment; scale = baseline: patients over healthy volunteers; measurement = systemic exposure ratio; result = ~20

Repeated from above:
Molecule = CNCc1ccc(-c2[nH]c3cc(F)cc4c3c2CCNC4=O)cc1; system = human patients, plasma; conditions = oral, 300 mg once daily, day 15, steady state, arithmetic mean; measurement = half-life; result = 29.8 h
